Assay results of several laboratories.
Parts stem from different laboratories: compare values within a part only. Changes are numbered by the printed parent chain.

Block 1
Target: Histone acetyltransferase KAT6A, both winged helices, GST fusion (KAT6A, Homo sapiens, UniProt Q92794, residues 1-181)
Method: protein binding microarray
Form: double-stranded DNA, one strand shown
Medium: in vitro
Concentration: not given
Setting: 8-mer, flanks averaged, mean of 2 arrays, mostly near background
Reference: not given
Reading: higher = stronger binding
Endpoint: E-score
Target sequence (chain): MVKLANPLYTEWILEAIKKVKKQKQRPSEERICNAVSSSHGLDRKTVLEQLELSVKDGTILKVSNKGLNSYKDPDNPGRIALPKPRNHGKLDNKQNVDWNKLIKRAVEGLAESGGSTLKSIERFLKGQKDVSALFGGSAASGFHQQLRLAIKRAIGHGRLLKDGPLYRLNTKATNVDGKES
CACGACGG: 0.215
ATCCCTGG: -0.154
TATTCTAA: -0.083
GCGCCCGA: 0.272
AATGCTTG: -0.0631
GCGAAGCC: 0.0347
CTCTGAAG: -0.102
ACCTATGG: -0.178
GGGGCGTA: -0.00238
TCATTAGA: -0.0362
CAAAGAAG: -0.0274
CACAATTA: -0.0429
ATACGAAT: -0.0171
CGTATGGC: 0.0309
AAAAGTGC: -0.0085
AGCCACCT: -0.281
ACAATGCG: 0.167
AAATCTGT: -0.207
ACCGAGGA: -0.0993
AAGCATCG: -0.0218
ACACAGGC: -0.152
ACTTCGCT: -0.0751
ACTATCCG: 0.131
AGACCGAA: 0.0648
ACGTTTCA: 0.0142

Block 2
Target: Interferon regulatory factor 7, full length, phosphomimetic (IRF7, Homo sapiens, UniProt Q92985, residues 1-503, S471D/S472D/S475D/S476D/S477D/S483D/S484D/S487D)
Method: protein-binding microarray
Form: double-stranded DNA, one strand shown
Medium: in vitro
Concentration: 2200 nM top
Setting: 60-bp whole probe
Together with: salmon DNA 0.4 mg/ml
Reference: random background probes
Reading: higher = stronger binding
Endpoint: fitted relative affinity
Constant ends, left off below: GCCTAGCAC … GTCTTGATTCGCTTGACGCTGCTG
Construct (chain): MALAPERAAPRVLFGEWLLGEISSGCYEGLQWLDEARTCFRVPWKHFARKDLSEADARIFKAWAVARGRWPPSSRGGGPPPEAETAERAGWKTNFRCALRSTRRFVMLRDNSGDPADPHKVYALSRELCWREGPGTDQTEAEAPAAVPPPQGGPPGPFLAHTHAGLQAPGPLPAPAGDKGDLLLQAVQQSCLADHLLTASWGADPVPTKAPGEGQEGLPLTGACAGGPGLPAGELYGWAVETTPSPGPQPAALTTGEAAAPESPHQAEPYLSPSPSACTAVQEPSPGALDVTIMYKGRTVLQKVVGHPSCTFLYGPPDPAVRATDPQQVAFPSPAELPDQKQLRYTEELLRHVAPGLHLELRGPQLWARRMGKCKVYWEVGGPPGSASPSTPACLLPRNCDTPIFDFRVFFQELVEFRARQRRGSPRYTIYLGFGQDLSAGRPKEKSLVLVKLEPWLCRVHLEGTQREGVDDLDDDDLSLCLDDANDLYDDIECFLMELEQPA
GACGCTATCAGTCTCGAGACGTGCTAG: 0.625 z-score
TCATTCATGAAATTTTAGACTGTGCTA: -0.182 z-score
GACGGGTTCGACTATCGGGACGTGCTA: 0.0837 z-score
TTAGGAATCCTTTTCCTTTAGTGCTAG: 0.88 z-score
AACGATATCAGTCTCGAGACGTGCTAG: 0.241 z-score
CCCAATCTCTCTTCACATATGTGCTAG: 1.46 z-score
TCAGGTCTCTAACTCAAACTGTGCTAG: 0.367 z-score
GACGGTTTCGACTTACGGGACGTGCTA: 8.02 z-score
GACGGACTGGGACTGGGGATGTGCTAG: -0.674 z-score
ATGACCTCACTGCCTGACACGTGCTAG: 0.953 z-score
GACGGACTGGGACTGGGAACGTGCTAG: -0.793 z-score
GACGGTTTCGGTCTCGGGAGGTGCTAG: 6.56 z-score
GGCTTTTTTTTTTTTTTTTTGTGCTAG: 0.619 z-score
GACGGTCTCCTTCTCCTGCCGTGCTAG: 0.715 z-score
GTAGATATCGGGTATCGATTAGTGCTA: 0.123 z-score
TTCTGGTTCCCATTCCAGGGGTGCTAG: 1.82 z-score
AATGATTACATATATGTTGGTGTGCTA: 0.368 z-score

Block 3
Target: ABI1, truncated, D143A, DHFR fusion (Arabidopsis thaliana)
Method: DHFR PCA, deep sequencing
Medium: yeast
Setting: methotrexate growth selection, single substitutions
Together with: (+)-ABA 4.8 µM
Reference: wild-type fitted maximum
Reading: higher = stronger binding
Endpoint: relative binding score
Starting sequence: PYL1, truncated, DHFR fusion (Arabidopsis thaliana); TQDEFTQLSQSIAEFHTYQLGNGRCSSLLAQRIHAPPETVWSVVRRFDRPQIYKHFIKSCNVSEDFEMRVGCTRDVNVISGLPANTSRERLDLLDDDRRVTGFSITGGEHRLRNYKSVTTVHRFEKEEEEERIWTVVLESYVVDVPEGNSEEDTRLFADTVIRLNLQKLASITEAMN
H122P: 3.51%
E129G: 91.1%
N114Y: 10.9%
E151T: 70.8%
E125P: 81.9%
T39A: 66.1%
Q31N: 9.02%
V76F: -2.3%
A158Y: 1.92%
A170Y: -7.61%
V76M: 17.2%
E4P: 63.4%
Q7I: 64.6%
N61W: 62.9%
I105E: -22.2%
V78I: 81.5%
R32E: 70.4%
V137C: 3.79%
T119F: -7.48%
R113C: 56.1%
S11Q: 84.1%
E130I: 66.5%
P36T: 66%

Block 4
Target: CCNB3, cyclin fold, Cln2 fusion (human)
Method: yeast growth competition, sequencing
Medium: yeast
Setting: weak parent motif
Reference: not given
Reading: higher = stronger binding
Endpoint: normalised enrichment score
Starting sequence: PKN2 docking peptide (human); VSAVQKLDFSDTM; partner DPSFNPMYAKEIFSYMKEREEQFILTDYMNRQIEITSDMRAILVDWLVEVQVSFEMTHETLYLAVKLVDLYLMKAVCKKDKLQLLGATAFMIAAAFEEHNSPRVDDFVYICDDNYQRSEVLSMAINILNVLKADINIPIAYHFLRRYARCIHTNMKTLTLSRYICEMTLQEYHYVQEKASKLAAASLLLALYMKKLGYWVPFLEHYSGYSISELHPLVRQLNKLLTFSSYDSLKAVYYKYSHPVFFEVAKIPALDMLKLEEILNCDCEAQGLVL
S10P: 0.453
L7C: 0.149
M13L: 0.163
M13W: 0.446
V4Q: -0.0264
D11T: 0.0234
D8Q: 0.267
F9A: 0.164
K6C: 0.481
A3W: 0.613
S2A: 0.391
D8H: 0.0191
M13T: 0.242
F9E: 0.244
S2L: 0.559
V1C: 0.507
A3N: -0.183
V1G: 0.206
S10D: 0.376
V1I: -0.366
M13G: 0.0662
S10E: 0.548
F9S: 0.521
D8F: 0.301
L7E: 0.0511

Block 5
Target: Prothrombin, mature alpha-thrombin (F2, Homo sapiens, UniProt P00734)
Method: aptamer microarray, sandwich
Form: DNA with 2'F-ANA
Medium: in vitro
Concentration: 200 nM
Setting: whole 15-mer aptamer, many near background
Together with: Cy3 exosite-II aptamer, 400 nM
Reading: higher = stronger binding
Endpoint: mean fluorescence intensity
Sequence: GGTTGGTGTGGTTGG
2'F-ANA at 3 4 6 7 8 9 11 12 14: 298 a.u.
2'F-ANA at 2 6 7 8 10 12 14: 104 a.u.
2'F-ANA at 1 2 3 5 6 7 8 9 10 11 12 13 14: 51.1 a.u.
2'F-ANA at 1 3 4 6 9 10: 64.4 a.u.
2'F-ANA at 2 4 7 9 10 11 12 13: 102 a.u.
2'F-ANA at 1 2 4 5 6 7 9 10 12 14 15: 53.8 a.u.
2'F-ANA at 4 5 6 9 10 12 14 15: 47.3 a.u.
2'F-ANA at 3 6 8 10: 517 a.u.
2'F-ANA at 1 2 7 8 9 10 11: 53.7 a.u.
2'F-ANA at 2 4 9 10 14: 62.7 a.u.
2'F-ANA at 1 2 7 8 9 11 13 15: 228 a.u.
2'F-ANA at 7 9 11 13 14 15: 181 a.u.
2'F-ANA at 1 5 6 9 10 11 13 15: 63 a.u.
2'F-ANA at 1 2 7 9 11 12: 295 a.u.
2'F-ANA at 1 2 9 11 13 15: 116 a.u.
2'F-ANA at 1 2 5 8 10 11 13 15: 48.2 a.u.
2'F-ANA at 1 4 5 6 8 9 10 12 15: 52 a.u.
2'F-ANA at 3 6 12: 1320 a.u.

Block 6
Target: BATF, bZIP domain (human)
Method: DHFR protein complementation
Medium: yeast
Setting: single substitutions, most at no-binding floor
Reference: wild-type JUN-FOS pair
Reading: higher = stronger binding
Endpoint: binding fitness
Starting sequence: JUN, bZIP domain (human); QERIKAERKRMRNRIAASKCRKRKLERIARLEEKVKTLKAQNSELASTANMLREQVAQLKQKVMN; partner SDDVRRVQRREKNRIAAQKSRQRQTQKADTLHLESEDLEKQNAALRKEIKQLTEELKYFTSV
R30E: 0.145 natural log
Q41R: -0.15 natural log
M51G: 0.0075 natural log
M51Y: 0.0499 natural log
M51F: -0.0155 natural log
I28W: -0.053 natural log
K39T: -0.0943 natural log
E32G: -0.22 natural log
A49E: -0.542 natural log
A29L: -0.18 natural log
K36C: 0.0907 natural log
S47W: -0.0584 natural log
L59G: -0.327 natural log
R53G: -0.492 natural log
N42Q: -0.0645 natural log
A49W: -0.382 natural log
N42A: -0.41 natural log
L31D: -0.107 natural log
A29N: -0.0593 natural log

Mixed results
PhoQ, residues 284 288 289 292 302 303 WVSSAF — fold induction (PhoP, residues 12 14 15 18 19 VQGLL (Escherichia coli, UniProt P23836); Sort-seq, measured: YFP reporter; E. coli; PhoQ-PhoP variant library, together with: 10 µM Mg2+; reference: high Mg2+ state, higher = stronger signaling): 13
